Experimental data collected from several papers.
Each line is one published result; not all experiments were run side by side. Values joined by “and” are separate records of one study, mostly repeats; a detail may differ. ± gives the spread as reported.

C[C@H](O)[C@@H](NC(=O)[C@H]1CCCN1C(=O)[C@@H](CCCCN)NC(=O)[C@@H](CO)NC(=O)[C@@H](Cc1ccc(O)cc1)NC(=O)[C@@H](CC(N)=O)NC(=O)CCOCCOCCOCCNC(=O)CN1CCN(CC(=O)O)CCN(CC(=O)O)CCN(CC(=O)O)CC1)C(=O)N[C@H](CC(=O)O)C(=O)N[C@H](CCCNC(=N)N)C(=O)N[C@H](CCC(N)=O)C(=O)N[C@H](Cc1ccc(O)cc1)C(=O)N[C@H](Cc1c[nH]cn1)C(=O)N[C@H](Cc1ccccc1)C(N)=O [copper-64 labelled] — tissue uptake (ex vivo gamma counting; C57BL/6J mouse, male, normal, testis; intravenous, 1.85 MBq, 60 min): 0.12 ± 0.01 %ID/g
O=C1NC(=O)c2c1c1cc(F)c[n+]3c1c1c2c2cc(O)ccc2[n]1[Ru-4]312([N]=C=S)[S+]3CC[S+]1CC[S+]2CC3 (stereo not shown) — remaining activity (CAMK1 (Homo sapiens, UniProt Q14012); enzyme activity; 100 nM, human enzyme, added: 10 µM ATP; reference: untreated): 79%
O=C1NC2(CC2)COc2ncc(F)cc2[C@H]2COCCN2c2ccn3ncc1c3n2 — eosinophil percentage (Sprague-Dawley rats, female, blood; oral, 5 mg/kg/day, end of treatment, 4-week subacute toxicity): 1.16 ± 0.2%
Cc1ccc(C(C)C)cc1.F[P-](F)(F)(F)(F)F.[Cl][Os+]1[N]2C=CC=c3ccc4c(c32)[N]1C=CC=4 — logP (shake-flask, ICP-MS): 0.29 ± 0.01
CC[C@H](C)[C@H](NC(=O)[C@@H](NC(=O)[C@H](C)NC(=O)[C@H](C)NC(=O)[C@H](CCC(N)=O)NC(=O)CNC(=O)[C@@H](NC(=O)[C@@H](NC(=O)[C@H](C)NC(=O)[C@@H](NC(=O)[C@H](C)NC(=O)[C@@H]1CCCN1C(=O)CNC(=O)[C@H](C)NC(=O)[C@H](CCCCN)NC(=O)[C@@H](NC(=O)[C@@H](NC(=O)CNC(=O)[C@H](CC(=O)O)NC(=O)[C@H](CCCNC(=N)N)NC(=O)[C@@H](NC(=O)[C@H](CC(N)=O)NC(=O)[C@H](CCC(N)=O)NC(=O)CNC(=O)[C@@H](NC(=O)[C@H](CCCCN)NC(=O)[C@H](CCC(=O)O)NC(=O)[C@@H](NC(=O)[C@H](CCCCN)NC(=O)[C@H](CCCCN)NC(=O)[C@H](Cc1ccccc1)NC(=O)[C@@H](NC(=O)[C@H](CCCCN)NC(=O)[C@H](Cc1c[nH]c2ccccc12)NC(=O)[C@@H](N)CCCNC(=N)N)[C@@H](C)CC)[C@@H](C)CC)C(C)C)[C@@H](C)CC)[C@@H](C)CC)C(C)C)C(C)C)C(C)C)C(C)C)[C@@H](C)O)C(N)=O — helical content (CD spectroscopy; 50% TFE in water; room temperature): 30.4%
COc1cnc2cccc(N3CCc4c(cc(Cn5ccnc5)cc4-c4cn(C)nc4C(F)(F)F)C3=O)c2c1 — body weight (BALB/c nude mice, MV4-11 xenograft; intraperitoneal, 75 mg/kg, day 21): 22.8 g and 22.4 g and 23.5 g and 21.7 g
C=Cc1c(C)c2cc3nc(c(CC(=O)[O-])c4[n-]c(cc5nc(cc1[n-]2)C(C)=C5CC)c(C)c4C(=O)[O-])C(CCC(=O)[O-])C3C.[Cu+2].[Na+].[Na+].[Na+] (stereo not shown) — serum albumin (Wistar rat, male; oral, 500 mg/kg daily, 28 days): 1 ± 0.06 g/dL
CN(C)[C@H]1C[C@@]23CC[C@@]4(O2)C(=CC[C@]2(C)[C@@H](c5ccc6ccncc6c5)CC[C@H]24)C=C3[C@@H](O)[C@@H]1O — inhibition (SNRK (Homo sapiens, UniProt Q9NRH2); ATP probe labelling, inhibitor, KiNativ profiling; 0.1 µM): 2%
CC[C@H](C)[C@H](NC(=O)[C@H](CCCNC(=N)N)NC(=O)[C@H](CCCNC(=N)N)NC(=O)[C@H](CC(C)C)NC(=O)[C@H](Cc1c[nH]c2ccccc12)NC(=O)[C@H](CCCCN)NC(=O)[C@H](CCCNC(=N)N)NC(=O)[C@H](CCCCN)NC(=O)[C@H](CCCNC(=N)N)NC(=O)[C@H](CCCNC(=N)N)NC(=O)CN)C(=O)NCC(=O)N[C@@H](CCCCN)C(=O)NCC(=O)N[C@H](C(=O)N[C@@H](CCCCN)C(=O)N[C@H](C(=O)N[C@H](C(=O)NCC(=O)NCC(=O)N[C@@H](C)C(=O)N[C@@H](C)C(=O)N[C@@H](CC(C)C)C(=O)N[C@@H](CC(=O)O)C(=O)N[C@@H](Cc1c[nH]cn1)C(=O)N[C@@H](CC(C)C)C(N)=O)[C@@H](C)CC)[C@@H](C)CC)C(C)C — chronic toxic concentration (zebrafish embryos 4 hpf, E3 medium; 24 h): 5 µM
CCc1nn(C)c2nc(-c3ccc(C(=O)O)cc3)nc(NCc3ccccc3)c12 — concentration (male CD-1 mouse, plasma; oral, 10 mg/kg, 1 h): 779 ng/mL
COC(=O)[C@H]1[C@@H](c2ccc(Cl)c(Cl)c2)C[C@@H]2CC[C@H]1N2CCCc1ccc2cc3ccccc3cc2c1 — pKa (fluorometric titration; 1 µM, 10% DMSO): 6.2
CC1(C)C(=O)N(c2ccc(C#N)c(C(F)(F)F)c2)C(=S)N1c1ccc(C(=O)O)c(F)c1 — half-life (male human, plasma; oral, 80 mg, single dose, fasted): 228 h
Cc1nc2cccc(OCC(C)(C)C(=O)NC(C)C)c2c(N)c1C(=O)[O-].[Na+] — revertant colonies per plate (Salmonella typhimurium; TA100; 5.0 mg per plate, with S9, plate incorporation): 116 ± 13
COc1ccccc1-c1n[nH]c2nc(NC3CCN(C(=O)Cc4ccc(F)cc4F)CC3)ncc12 — relative abundance (bead binding, competition bead pull-down, item: LMJF.36.3530; Leishmania donovani extract; 10 µM; reference: vehicle): 0.93
N=C(N)NCCC[C@@H](NC(=O)[C@H](N)Cc1c[nH]c2ccccc12)C(=O)N[C@H](CCCCN)C(=O)N[C@H](Cc1c[nH]c2ccccc12)C(=O)N[C@H](CCCNC(=N)N)C(=O)N[C@H](CCCCN)C(=O)N[C@H](Cc1c[nH]c2ccccc12)C(=O)N[C@H](CCCNC(=N)N)C(=O)N[C@H](CCCCN)C(=O)N[C@H](Cc1c[nH]c2ccccc12)C(=O)N[C@H](CCCNC(=N)N)C(=O)N[C@H](CCCCN)C(N)=O — survival (mouse; intraperitoneal, 40 mg/kg single dose, day 3): 75%
N#[11C]c1ccc(-c2csc(NN=C3CCCC3)n2)cc1 — radioactivity uptake (C57BL/6 mice, male, heart; intravenous, 3 MBq, 15 min): 4.36 ± 0.28 %ID/g
CCn1ccc(-c2cc(-c3cnn(C)c3)cc([C@@H](C)NC(=O)c3cc(OCCN(C)C)ccc3C)c2)n1 — AUC(0-t) (C57BL/6J mice, male, plasma; oral, 50 mg/kg): 22800 ng·h/mL
Cc1cc(C(=O)Nc2nc3cccc(C)c3n2[C@H]2CCCCN(C(=O)/C=C/CN(C)C)C2)ccn1 — survival (Trypanosoma brucei; STIB795, mouse acute HAT model; oral, 25 mg/kg once daily for 4 days, day 31; reference: mice): 16.7%
CC(C)(C)C(=O)OCOP(=O)(OCOC(=O)C(C)(C)C)C1CCCN(O)C1=O (stereo not shown) — log LC50 (PC-3): > -4 log M
CC[C@H](C)[C@H](NC(=O)[C@H](CCCCN)NC(=O)CNC(=O)[C@H](CC(C)C)NC(=O)[C@H](Cc1ccccc1)NC(=O)[C@H](CCCCN)NC(=O)[C@H](CO)NC(=O)[C@H](Cc1ccccc1)NC(=O)[C@H](Cc1c[nH]c2ccccc12)NC(=O)[C@H](CCC(N)=O)NC(=O)[C@@H](NC(=O)[C@H](Cc1ccccc1)NC(=O)CCCCCNC(=O)CN1CCN(CC(=O)O)CCN(CC(=O)O)CCN(CC(=O)O)CC1)C(C)C)C(=O)N[C@@H](CCC(=O)O)C(=O)N1CCC[C@H]1C(=O)N[C@@H](CC(=O)O)C(=O)N[C@H](C(=O)N[C@@H](CO)C(=O)N[C@@H](CCC(N)=O)C(=O)N[C@H](C(=O)N[C@@H](CCC(N)=O)C(=O)N[C@@H](CC(=O)O)C(=O)N1CCC[C@H]1C(=O)N[C@@H](CC(N)=O)C(=O)N[C@@H](CC(=O)O)C(=O)N[C@@H](CCC(N)=O)C(=O)N[C@@H](Cc1ccc(O)cc1)C(=O)N[C@@H](CCC(=O)O)C(=O)N1CCC[C@H]1C(=O)N[C@@H](Cc1ccccc1)C(=O)O)C(C)C)C(C)C [copper-64 labelled] — tissue uptake (BALB/c mice, male, CT26 tumour-bearing, lung; 2 h, vehicle-treated): 3.53 ± 1.5 %ID/g
CSCC[C@H](N)C(=O)N[C@@H](C)C(=O)N[C@@H](Cc1c[nH]c2ccccc12)C(=O)N[C@@H](Cc1c[nH]cn1)C(=O)N[C@@H](CC(=O)O)C(=O)N[C@@H](CC(=O)O)C(=O)N[C@@H](CCC(=O)O)C(=O)N[C@@H](CCC(=O)O)C(=O)N[C@@H](Cc1ccccc1)C(=O)N[C@@H](C)C(=O)N[C@@H](CCCNC(=N)N)C(=O)N[C@@H](CCCNC(=N)N)C(=O)N[C@@H](CCCNC(=N)N)C(=O)N[C@@H](CCCNC(=N)N)C(=O)NCCCCCC(=O)NCCCCC(NC(=O)CCCCCNC(=O)[C@H](CCCNC(=N)N)NC(=O)[C@H](CCCNC(=N)N)NC(=O)[C@H](CCCNC(=N)N)NC(=O)[C@H](CCCNC(=N)N)NC(=O)[C@H](C)NC(=O)[C@H](Cc1ccccc1)NC(=O)[C@H](CCC(=O)O)NC(=O)[C@H](CCC(=O)O)NC(=O)[C@H](CC(=O)O)NC(=O)[C@H](CC(=O)O)NC(=O)[C@H](Cc1c[nH]cn1)NC(=O)[C@H](Cc1c[nH]c2ccccc12)NC(=O)[C@H](C)NC(=O)[C@@H](N)CCSC)C(=O)NCCCCC(NC(=O)C(CCCCNC(=O)CCCCCNC(=O)[C@H](CCCNC(=N)N)NC(=O)[C@H](CCCNC(=N)N)NC(=O)[C@H](CCCNC(=N)N)NC(=O)[C@H](CCCNC(=N)N)NC(=O)[C@H](C)NC(=O)[C@H](Cc1ccccc1)NC(=O)[C@H](CCC(=O)O)NC(=O)[C@H](CCC(=O)O)NC(=O)[C@H](CC(=O)O)NC(=O)[C@H](CC(=O)O)NC(=O)[C@H](Cc1c[nH]cn1)NC(=O)[C@H](Cc1c[nH]c2ccccc12)NC(=O)[C@H](C)NC(=O)[C@@H](N)CCSC)NC(=O)CCCCCNC(=O)[C@H](CCCNC(=N)N)NC(=O)[C@H](CCCNC(=N)N)NC(=O)[C@H](CCCNC(=N)N)NC(=O)[C@H](CCCNC(=N)N)NC(=O)[C@H](C)NC(=O)[C@H](Cc1ccccc1)NC(=O)[C@H](CCC(=O)O)NC(=O)[C@H](CCC(=O)O)NC(=O)[C@H](CC(=O)O)NC(=O)[C@H](CC(=O)O)NC(=O)[C@H](Cc1c[nH]cn1)NC(=O)[C@H](Cc1c[nH]c2ccccc12)NC(=O)[C@H](C)NC(=O)[C@@H](N)CCSC)C(N)=O (stereo partly shown) — mean tissue distribution (C57BL/6 mouse female, pancreas; dose not given, 3 h; reference: total): 1.14%
Cc1cc(-c2ccc3ccccc3c2)nnc1NCCN1CCN(C)CC1 — remaining compound (Cytochrome P450 2B6 (CYP2B6, Homo sapiens, UniProt P20813); substrate; recombinant enzyme; 100 nM, 0.5 h): 98%
CS(C)(=O)=Nc1ccc(-c2ccc(-c3nc4cc(O[C@@H]5CO[C@H]6[C@@H]5OC[C@H]6O)[nH]c4cc3F)cc2)cc1 — inhibition (NEK9 (Homo sapiens, UniProt Q8TD19); enzyme activity, inhibitor; 10 µM): -11%
CN1Cc2cc(Cl)ccc2-n2c(nnc2C2CCN(c3cccc([18F])n3)CC2)C1 — total volume of distribution (PET two-tissue compartment model; rhesus monkey, thalamus; intravenous, dose not given, 70 min scan, baseline scan): 1.11 ± 0.32 mL/cm3
CC(C)Oc1c(NC(=O)c2ccc(NC(=O)[C@H](CC(N)=O)NC(=O)c3ccc(/N=N/c4ccccc4)cc3)cc2)ccc(C(=O)Nc2ccc(C(=O)O)cc2)c1O — thermal relaxation half-life (absorbance kinetics; 40 °C, photostationary to ground state): 7.4 h
